Assay results gathered from unrelated publications.
A part holds a random share of what one study measured. Changes are numbered by the printed parent chain.

Series 1
Target: Centromere-binding protein 1, full length, His-tagged (CBF1, Saccharomyces cerevisiae, UniProt P17106, residues 1-351)
Sequence of UniProt P17106 (whole entry, looked up): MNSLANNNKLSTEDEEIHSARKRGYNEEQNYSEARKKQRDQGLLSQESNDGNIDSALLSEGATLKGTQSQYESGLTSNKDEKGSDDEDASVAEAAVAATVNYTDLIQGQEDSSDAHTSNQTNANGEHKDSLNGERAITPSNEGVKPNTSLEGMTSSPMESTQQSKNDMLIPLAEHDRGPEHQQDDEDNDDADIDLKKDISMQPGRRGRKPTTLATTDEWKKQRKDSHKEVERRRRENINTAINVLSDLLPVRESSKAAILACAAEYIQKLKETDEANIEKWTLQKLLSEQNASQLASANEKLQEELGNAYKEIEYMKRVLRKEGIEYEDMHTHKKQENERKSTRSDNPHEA
Technique: competition protein-binding microarray
Form: double-stranded DNA, one strand shown
Medium: in vitro
Concentration: 2 µM
Notes: whole 60-bp probe, lowest competitor level
Together with: Pho4 competitor, 0.05 µM
Reading: higher = stronger binding
Measurement: fluorescence intensity
Shared flanks, not repeated: … GTCTTGATTCGCTTGACGCTGCTG
Sequence = TAAAGTGCCCGCCATCACGTCACTTCTTCCTACAGA; result = 77.1 a.u.
Sequence = TGTTTGGCTGGTGTGTACGTGGTGAAAACCAAGAAT; result = 65.8 a.u.
Sequence = AAATTACTAAGTTGCATTGTGGGTGACGCCGTATGA; result = 77.5 a.u.
Sequence = CTTTCCCGATCTTGTCACAACACTTTAGCACATTTG; result = 94.2 a.u.
Sequence = TTGCTGGTTACCCTGCATGTGATATTTGATTACATA; result = 432 a.u.
Sequence = TTTGTGCAGCACAATCACCTGTGGTTACTGGAGAAT; result = 81.2 a.u.
Sequence = CTTCTGTAAATTTGACCTGTGGGTGGACGCGCCCCG; result = 66.2 a.u.
Sequence = TTGTGTGTATGGTTCCACGTTTCTGCCTTGTGCTTT; result = 86.8 a.u.
Sequence = AAAGCGGTAATTTGTCACTCTACTTCACATATCTAT; result = 77.9 a.u.
Sequence = AAAGCGGTAATTTTTCACGTGAATTCACATATCTAT; result = 907 a.u.
Sequence = GCACCACACAGGTTTTACGTGCGGACAAGACCGTTG; result = 60.6 a.u.
Sequence = CGGGGTTAAGTTTGAATTGTGGGTGGCTTGCAGCAG; result = 70.7 a.u.
Sequence = CTTTCCCGATCTTGCCGAGTGGGTGTAGCACATTTG; result = 58.8 a.u.
Sequence = GGACGAGAAATACACAGATTCAGTAAGATTTGTGAG; result = 76.8 a.u.
Sequence = GTCCACTCCCGCACTCACGTGTTCCCGCCTTGCCCT; result = 1450 a.u.
Sequence = CATACCCAACCTTTGCACGTGTTTTAAGATATTTGT; result = 2530 a.u.
Sequence = GAACCGGTAAGCCTACACGTCTAGGTGCATTCAACG; result = 54.6 a.u.
Sequence = TGCGCAACAACTTGTAGAGTGGGTGTATGTCTAGAA; result = 57.5 a.u.
Sequence = TCCGATGGAAACGAGCATGTGGCCGATAGATCTAAA; result = 106 a.u.

Series 2
Target: RNA binding protein fox-1 homolog 2, RRM domain, GST-SBP tag (RBFOX2, Homo sapiens, UniProt O43251-10, residues 100-194)
Technique: RNA Bind-n-Seq
Form: RNA
Medium: in vitro
Concentration: 365 nM
Notes: natural RNA segment, single round, ends assumed
Baseline: no-protein control
Reading: higher = stronger binding
Measurement: RBNS enrichment (R)
Shared flanks, not repeated: GGGAGUUCUACAGUCCGACGAUC … UGGAAUUCUCGGGUGCCAA
Sequence = UGCUAUAUAUUGAAUGGGCCCUUUAGUUUUCUCUUAGUUCUGACCUGUAUAUAUUGCUUUAAUAGAGCCACGAUUUGUAUAUGUGCUGUUCAUUAGAGCAAAUUCAGGGG; result = 1.44
Sequence = AAUUAGCACAUCUGUGGCUGAGGAGAAAUCCACCUGAAAAUGUGGGAGACCUUGACAGAGUGGUCAGCUGGAUCAGUGUGCCCUAAACUAAGUAAAAUCAUUGUUCCAUU; result = 0.54
Sequence = AUGCUGUACUAUUCCACCCUUUGGACGCCUCAUCCAGGACGCAGAGGACUCUAGGUUUAACAUUUUGUACAAAAUGGAACCUGUUAAUCAUAUUAAAGCACAUAUGUAUA; result = 0.656
Sequence = GGGGGCGGGGUACUCUCCCUGUCGCUAGGUGAGCACUGGCUUUGUCCAACAUCAGGGAACACAAGGCUCUGAAGUGGCCCUGUGUGGAAGGUUGGCAGCUGCCUGGCCUC; result = 0.377
Sequence = CCUAUUUAUUUCAGUGAGAAUGCGUGUCCGGUUGCCUCUGUCCCUGUUUGUGCGUCCUUCCUCCCAGCCGGUUCCCACCCUCCUAAGGGUUAUGCCAGUGGAUCUCACGC; result = 1.28
Sequence = AGGCCGCAUGGAUGAGGCCGUGUGGCGGCCCUACUGACCGCCCUGGUGGACUCCUCCCGCUGGAGGCGGGGACCCUAACAACCUUCAAGACCAGUGAUGGGCCGGCUCCG; result = 0.779
Sequence = ACAGAUUUUCUUGGGAGCUUGAAUAGCCCUUCUUGGACAAUGGGGUCUGGAAAUAGGGCUGUCUGCUUAUGGAAAUGCCAUCUGUAGACCUUGAGAGUCAACUGUACAGA; result = 0.659
Sequence = UCUGUGGGUCUGUACCAGGUACUCCAGGCCAGCCCAUGGGCCCGGGGCCUGACCCCAACACCUGCAUGCUGGGUCCAGAGCCUUCUGUUUCACCGUGCGUGGACACUGCU; result = 3.56

Series 3
Target: ABI1, truncated, D143A, DHFR fusion (Arabidopsis thaliana)
Technique: DHFR PCA, deep sequencing
Medium: yeast
Notes: methotrexate growth selection, single substitutions
Together with: (+)-ABA 17 µM
Baseline: wild-type fitted maximum
Reading: higher = stronger binding
Measurement: relative binding score
Parent: PYL1, truncated, DHFR fusion (Arabidopsis thaliana); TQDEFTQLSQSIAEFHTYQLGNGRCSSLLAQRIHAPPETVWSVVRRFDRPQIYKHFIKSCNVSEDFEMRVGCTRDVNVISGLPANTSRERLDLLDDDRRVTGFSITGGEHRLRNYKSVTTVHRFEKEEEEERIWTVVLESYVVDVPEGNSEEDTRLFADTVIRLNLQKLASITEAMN
Substitution = P50L; result = -4.91%
Substitution = D48K; result = -2.87%
Substitution = C25M; result = 52.5%
Substitution = Y53C; result = -7.84%
Substitution = E127I; result = 78.3%
Substitution = L8V; result = 53.6%
Substitution = S27T; result = 28.4%
Substitution = T119K; result = 9.58%
Substitution = A170T; result = 49.7%
Substitution = L91E; result = 11.6%
Substitution = A30S; result = 88.5%
Substitution = R113W; result = 47.4%
Substitution = Q2H; result = 81.5%
Substitution = D3P; result = 80.2%
Substitution = H55N; result = 84.8%
Substitution = F157R; result = 3.7%

Series 4
Target: CCNE2, cyclin fold, Cln2 fusion (human)
Technique: yeast growth competition, sequencing
Medium: yeast
Notes: strong parent motif
Baseline: not given
Reading: higher = stronger binding
Measurement: normalised enrichment score
Parent: CDC25A docking peptide (human); PPHRRRLLFACSP
Substitution = F9I; result = 0.949
Substitution = S12G; result = 2.24
Substitution = R4Q; result = 1.17
Substitution = L8I; result = 3.25
Substitution = L7K; result = 0.757
Substitution = R4K; result = 2.43
Substitution = S12H; result = 1.52
Substitution = S12M; result = 1.43
Substitution = L8T; result = 2.96
Substitution = P1E; result = 3.74
Substitution = F9N; result = 0.637
Substitution = A10P; result = 2.37
Substitution = R5H; result = 1.33
Substitution = F9M; result = 1.17
Substitution = R5A R6A L7A L8A; result = -0.0165
Substitution = S12L; result = 1.19

Repeated from above (series 4):
Substitution = S12G; result = 2.24
Substitution = F9N; result = 0.637
Substitution = R4K; result = 2.43
Substitution = S12H; result = 1.52
Substitution = L8T; result = 2.96
Substitution = R4Q; result = 1.17
Substitution = F9M; result = 1.17
